Experimental data from different studies.
Compare with care: the assays were run in different laboratories. Several values in a cell are separate wells, animals, samples, runs or records. ± marks the error that the study gave.

Structure (SMILES) | tested on | test | system | conditions | how to read | measurement | value
CC(C)C[C@@H](NC(=O)[C@@H](CCCNC(=N)N)NC(=O)[C@@H](Cc1c[nH]cn1)NC(=O)[C@@H](Cc1c[nH]c2ccccc12)NC(=O)[C@@H](Cc1c[nH]cn1)NC(=O)[C@@H](Cc1ccccc1)NC(=O)[C@H](NC(=O)[C@@H](Cc1ccc(O)cc1)NC(=O)CNC(=O)CNC(=O)CCOCCOCCOCCNC(=O)CN1CCN(CC(=O)O)CCN(CC(=O)O)CC1)[C@H](C)O)C(=O)N[C@H](CC(N)=O)C(=O)N1CCC[C@@H]1C(=O)O [gallium-68 labelled] |  | gamma counting | C57BL/6 mice, male, kidney | intravenous, 1.85 MBq, 120 min |  | tissue uptake | 27.3 ± 5.62 %ID/g
CSCC[C@H](NC(=O)CNC(=O)[C@H](CCCCN)NC(=O)[C@H](CC(C)C)NC(=O)[C@@H]1CCCN1C(=O)[C@H](CO)NC(=O)[C@H](Cc1c[nH]cn1)NC(=O)[C@H](Cc1c[nH]c2ccccc12)NC(=O)[C@H](CCCNC(=N)N)NC(=O)[C@H](CC(C)C)NC(=O)[C@H](CCCNC(=N)N)NC(=O)[C@H](Cc1c[nH]c2ccccc12)NC(=O)[C@H](CS)NC(=O)CCCCCNC(=O)CN1CCN(CC(=O)O)CCN(CC(=O)O)CCN(CC(=O)O)CC1)C(=O)O [copper-64 labelled] |  | PET | C57BL/6J mice, B16-F10 tumour, kidney | intravenous, 38 h |  | tissue uptake | 2.8 ± 0.29 %ID/g
CC[C@H](C)[C@H](NC(=O)[C@H](CCCCN)NC(=O)CNC(=O)[C@H](CC(C)C)NC(=O)[C@H](Cc1ccccc1)NC(=O)[C@H](CCCCN)NC(=O)[C@H](CO)NC(=O)[C@H](Cc1ccccc1)NC(=O)[C@H](Cc1c[nH]c2ccccc12)NC(=O)[C@H](CCC(N)=O)NC(=O)[C@@H](NC(=O)[C@H](Cc1ccccc1)NC(=O)CCCCCNC(=O)CN1CCN(CC(=O)O)CCN(CC(=O)O)CCN(CC(=O)O)CC1)C(C)C)C(=O)N[C@@H](CCC(=O)O)C(=O)N1CCC[C@H]1C(=O)N[C@@H](CC(=O)O)C(=O)N[C@H](C(=O)N[C@@H](CO)C(=O)N[C@@H](CCC(N)=O)C(=O)N[C@H](C(=O)N[C@@H](CCC(N)=O)C(=O)N[C@@H](CC(=O)O)C(=O)N1CCC[C@H]1C(=O)N[C@@H](CC(N)=O)C(=O)N[C@@H](CC(=O)O)C(=O)N[C@@H](CCC(N)=O)C(=O)N[C@@H](Cc1ccc(O)cc1)C(=O)N[C@@H](CCC(=O)O)C(=O)N1CCC[C@H]1C(=O)N[C@@H](Cc1ccccc1)C(=O)O)C(C)C)C(C)C [copper-64 labelled] |  |  | C57BL/6 male mouse, tumour-naive, large intestine | 2 h |  | tissue uptake | 10.7 ± 3.1 %ID/g
CC(C)(C)C(=O)OCOP(=O)(OCOC(=O)C(C)(C)C)C1CCCN(O)C1=O (stereo not shown) | RPMI-8226 |  |  |  |  | CC50 | > 100 µM
CSCC[C@H](N)C(=O)N[C@@H](C)C(=O)N[C@@H](Cc1c[nH]c2ccccc12)C(=O)N[C@@H](Cc1c[nH]cn1)C(=O)N[C@@H](CC(=O)O)C(=O)N[C@@H](CC(=O)O)C(=O)N[C@@H](CCC(=O)O)C(=O)N[C@@H](CCC(=O)O)C(=O)N[C@@H](Cc1ccccc1)C(=O)N[C@@H](C)C(=O)N[C@@H](CCCNC(=N)N)C(=O)N[C@@H](CCCNC(=N)N)C(=O)N[C@@H](CCCNC(=N)N)C(=O)N[C@@H](CCCNC(=N)N)C(=O)NCCCCCC(=O)NCCCCC(NC(=O)CCCCCNC(=O)[C@H](CCCNC(=N)N)NC(=O)[C@H](CCCNC(=N)N)NC(=O)[C@H](CCCNC(=N)N)NC(=O)[C@H](CCCNC(=N)N)NC(=O)[C@H](C)NC(=O)[C@H](Cc1ccccc1)NC(=O)[C@H](CCC(=O)O)NC(=O)[C@H](CCC(=O)O)NC(=O)[C@H](CC(=O)O)NC(=O)[C@H](CC(=O)O)NC(=O)[C@H](Cc1c[nH]cn1)NC(=O)[C@H](Cc1c[nH]c2ccccc12)NC(=O)[C@H](C)NC(=O)[C@@H](N)CCSC)C(=O)NCCCCC(NC(=O)C(CCCCNC(=O)CCCCCNC(=O)[C@H](CCCNC(=N)N)NC(=O)[C@H](CCCNC(=N)N)NC(=O)[C@H](CCCNC(=N)N)NC(=O)[C@H](CCCNC(=N)N)NC(=O)[C@H](C)NC(=O)[C@H](Cc1ccccc1)NC(=O)[C@H](CCC(=O)O)NC(=O)[C@H](CCC(=O)O)NC(=O)[C@H](CC(=O)O)NC(=O)[C@H](CC(=O)O)NC(=O)[C@H](Cc1c[nH]cn1)NC(=O)[C@H](Cc1c[nH]c2ccccc12)NC(=O)[C@H](C)NC(=O)[C@@H](N)CCSC)NC(=O)CCCCCNC(=O)[C@H](CCCNC(=N)N)NC(=O)[C@H](CCCNC(=N)N)NC(=O)[C@H](CCCNC(=N)N)NC(=O)[C@H](CCCNC(=N)N)NC(=O)[C@H](C)NC(=O)[C@H](Cc1ccccc1)NC(=O)[C@H](CCC(=O)O)NC(=O)[C@H](CCC(=O)O)NC(=O)[C@H](CC(=O)O)NC(=O)[C@H](CC(=O)O)NC(=O)[C@H](Cc1c[nH]cn1)NC(=O)[C@H](Cc1c[nH]c2ccccc12)NC(=O)[C@H](C)NC(=O)[C@@H](N)CCSC)C(N)=O (stereo partly shown) |  |  | C57BL/6 mouse female, spleen | dose not given, 3 h | reference: total | tissue distribution | 0.7% and 0.79% and 0.78%
CCCC[C@H]1C(=O)N(C)[C@@H](CCCC)C(=O)N[C@@H](CCCNC(=O)CN2CCN(CC(=O)O)CCN(CC(=O)O)CCN(CC(=O)O)CC2)C(=O)N[C@H](C(=O)NCC(N)=O)CSCC(=O)N[C@@H](Cc2ccc(O)cc2)C(=O)N(C)[C@@H](C)C(=O)N[C@@H](CC(N)=O)C(=O)N2CCC[C@H]2C(=O)N[C@@H](Cc2c[nH]cn2)C(=O)N[C@@H](CC(C)C)C(=O)N(C)CC(=O)N[C@@H](Cc2c[nH]c3ccccc23)C(=O)N[C@@H](CO)C(=O)N[C@@H](Cc2c[nH]c3ccccc23)C(=O)N1C [gallium-68 labelled] |  |  | NOD/SCID mice, CHO-hPD-L1 xenograft, skin | 60 min, PBS pretreatment |  | tissue uptake | 3.53 ± 0.68 %ID/g
COc1ccc(/C=C\c2cc(OC)c(OC)c(OC)c2)cc1OC(C)(C)c1ccc([N+](=O)[O-])s1 |  | non-enzymatic, no POR | phosphate buffer | 24 h, pH 7.4 |  | parent drug release | 0%
O=C(O)CC[C@H](NC(=O)[C@H](CCC(=O)O)NC(=O)[C@H](CCC(=O)O)NC(=O)[C@H](CCC(=O)O)NC(=O)[C@H](CCC(=O)O)NC(=O)CNC(=O)[C@H](CCC(=O)O)NC(=O)CNC(=O)[C@H](CCC(=O)O)NC(=O)[C@@H](Cc1ccccc1)NC(=O)[C@@H](Cc1ccccc1)NC(=O)Cc1ccc2ccccc2c1)C(=O)O |  | TEM | aqueous solution | 500 µM, pH 9 |  | nanoparticle diameter | 14 ± 2 nm
N#Cc1cc(NC(=O)CCc2nc(-c3ccc(F)cc3Cl)no2)cnc1CC(F)(F)F |  |  | water |  |  | aqueous solubility | < 1 µg/mL
C#Cc1c(F)ccc2cc(O)cc(-c3ncc4c(N5CC6CCC(C5)N6C(=O)OC(C)OC(=O)c5cccc6ccccc56)nc(OC[C@@]56CCCN5C[C@H](F)C6)nc4c3F)c12 (stereo partly shown) |  | measured: prodrug | mouse whole blood | 1 µM |  | t1/2 | 0.825 h
COCC12CCC(OC)C34C5CC6(O)C(OC)C(O)C(O)(C5C6OC(=O)c5ccccc5)C(C(OC)C13)C4N(C)C2 (stereo not shown) |  |  | Sprague-Dawley rat, plasma | oral, dose not given, with NADES in PCW extract |  | MRT(0-t) | 5.83 ± 0.919 h
COc1ccccc1-c1n[nH]c2nc(NC3CCN(C(=O)Cc4ccc(F)cc4F)CC3)ncc12 |  | bead binding, competition bead pull-down, measured: LMJF.36.3530 | Leishmania donovani axenic amastigote extract | 10 µM | reference: vehicle | relative abundance | 0.91
CC(CCC(=O)NCC(=O)O)C1CCC2C3CCC4CC(OC5OC(C(=O)O)C(O)C(O)C5O)CCC4(C)C3CC(O)C12C (stereo not shown) |  |  | men, T/T genotype, plasma | dose not given, geometric mean |  | glucuronide to parent ratio | 0.593
O=C1NC2(CC2)COc2ncc(F)cc2[C@H]2COCCN2c2ccn3ncc1c3n2 |  |  | Sprague-Dawley rat, female, serum | oral, 2.5 mg/kg/day, end of recovery, 4-week subacute toxicity |  | serum urea | 3.65 ± 0.27 mmol/L
C[C@H](O)[C@@H](NC(=O)[C@H]1CCCN1C(=O)[C@@H](CCCCN)NC(=O)[C@@H](CO)NC(=O)[C@@H](Cc1ccc(O)cc1)NC(=O)[C@@H](CC(N)=O)NC(=O)CCOCCOCCOCCNC(=O)CN1CCN(CC(=O)O)CCN(CC(=O)O)CCN(CC(=O)O)CC1)C(=O)N[C@H](CC(=O)O)C(=O)N[C@H](CCCNC(=N)N)C(=O)N[C@H](CCC(N)=O)C(=O)N[C@H](Cc1ccc(O)cc1)C(=O)N[C@H](Cc1c[nH]cn1)C(=O)N[C@H](Cc1ccccc1)C(N)=O [gallium-68 labelled] |  |  | BALB/c nude mice U-87 MG tumour, fat | intravenous, 1.85 MBq, 0.08333 h, radiolabelled |  | tissue uptake | 2.09 ± 0.49 %ID/g
COc1ccc([C@@H]2CC(=O)c3c(O)cc(O[C@@H]4O[C@H](CO)[C@@H](O)[C@H](O)[C@H]4O[C@@H]4O[C@@H](C)[C@H](O)[C@@H](O)[C@H]4O)cc3O2)cc1O |  |  | male Sprague-Dawley rats, lean, urine | oral, 100 mg/kg, 48 to 36 h, total after deconjugation |  | urinary excretion | 3.28 ± 1.44 ng

For quick reference, copied from above:
Structure (SMILES) | tested on | test | system | conditions | how to read | measurement | value
N#Cc1cc(NC(=O)CCc2nc(-c3ccc(F)cc3Cl)no2)cnc1CC(F)(F)F |  |  | water |  |  | aqueous solubility | < 1 µg/mL
